Measured values collected from several papers.
A part holds a random share of what one study measured. Positions count from the first letter of the parent shown.

Set 1 — method: DHFR PCA, deep sequencing; matrix: yeast; together with: (+)-ABA 1.4 µM; relative to: wild-type fitted maximum; reading: higher = stronger binding; quantity: relative binding score
Target: ABI1, truncated, D143A, DHFR fusion (Arabidopsis thaliana)
Setting: methotrexate growth selection, single substitutions
Parent: PYL1, truncated, DHFR fusion (Arabidopsis thaliana); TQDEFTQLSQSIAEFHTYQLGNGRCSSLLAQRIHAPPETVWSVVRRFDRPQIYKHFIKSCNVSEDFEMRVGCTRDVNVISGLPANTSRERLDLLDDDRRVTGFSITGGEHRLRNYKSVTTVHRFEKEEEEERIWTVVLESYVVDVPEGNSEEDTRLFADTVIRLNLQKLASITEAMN
K54H: -6.21%
M176P: 30%
H16S: -8.63%
N77T: 81.4%
D92R: 0.245%
R155A: 4.04%
D48S: 4.69%
Q19S: 59.7%
W41R: 1.77%
I172V: 62.3%
E152Q: 38.8%
I52V: 71.5%
V70A: 30.9%
E64Q: 55.4%
Q7T: 58.5%
Q7W: 63.7%
P146M: -1.64%
E125L: 50.8%
E129Y: 48.7%
Q167K: 69.3%
N85S: 78.6%

Set 2 — method: RNA Bind-n-Seq; molecule type: RNA; matrix: in vitro; concentration: 365 nM; relative to: no-protein control; reading: higher = stronger binding; quantity: RBNS enrichment (R)
Target: RNA binding protein fox-1 homolog 2, RRM domain, GST-SBP tag (RBFOX2, Homo sapiens, UniProt O43251-10, residues 100-194)
Setting: natural RNA segment, single round, ends assumed
Shared flanks, not repeated: GGGAGUUCUACAGUCCGACGAUC … UGGAAUUCUCGGGUGCCAA
Target sequence (chain): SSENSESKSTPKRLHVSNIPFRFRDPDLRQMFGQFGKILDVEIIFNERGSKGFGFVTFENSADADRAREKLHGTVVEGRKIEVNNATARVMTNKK
GCCUGUUCCACCCCUUUGUUCACUUCGCGUUAACUGCUGUGGUAACUUUUUCAGGAUCUGUGUGAAGAAUGGUAAUGACGUAGUUGAAAGGAAAAUGUACUGUUGUGUGU: 0.864
GCUUCUUUAGGUCAAAGAAAUCAAUUGCUUUCCAUAGAGCUGAUACUGUGAACAUUCGAAUGCAUCUGUGGCCUUCGCCUCCCCAGCUGCCCUGUCCCUCCUUGGAAACA: 0.254
GCUUGAGUGCUAUGCAAAUAGUAAGUAGUGUAGUGGUGAUUUUUCUUUGCAUGUUGUGUGUGAUAUACCUAGCCAGAAAUAGAUGUGGCUUUUGUUUUGGGGGCAGAUUA: 11.3
CUUGUCCCAGGAGAACUGACCACAGUAGUUCCCACUGUAUAAUUUUUAUGUUGAGCCAAGAGAGAAUAUGUUGCACUUUAAACACGCUGUGUCCUGCUCCCUUUGAGUGU: 0.997
CUCUGGGAAGUCAGCUCUGCCGGCCCGAGAGGGGCGGGCACUUUUUCAGCUUGCUAUAACCCCUUCCCCAUACCUCCAGGCAGGGUUGGAAAUGAAGGACUUUUUUAACC: 0.362
CCUUUUAGGAUCUAGACAUACGGGUAAGACAUGACUCUCCCUGGAGCAGCUCUCUGCAGAACAAAAACUAAUUCAAUGAAGCAGCUGUCCCUCCCAGUGUUUGCAGAGCU: 0.481
AAGACCCCAUGUCAAAAUUAUAUAUAUAUAUAUAAUGUAUAUAUAUACAAUAUGCUGGACAUGUGACUCAUGGCUAGAGAAUGUGUCUAGCAUGAUCGGGGACUAAGUUC: 1.32
CUACAGUACUAAGACAAUGUUGAAUAUAUCAUUCGCCUCUAUAACAAUUUAAUGUAUUCAGUUUUGACUGUGCUUCAUAUCAUGUACCUCUCUAGUCAAAGUGGUAUUAC: 0.385
GAAGGUUUUACUGUAUUGUUGCACAACUUUAAGAUAAUUUUUGUCUCAAUGUCAACUUUUUUCACUGAAUAAAAAUUUAACUGGGUCAAGAAAACACCUCUUUGAAAAUC: 0.518
CUGGUAUCUGAAUGUUGAUUCCUCAUUUAGGAGUUCAGCAUUAAUUUCCAAAAUUUUCAUGGGGCUUGUGGCAACACGGGCCGUGAAUCUGUGUAUAAAAUUUACUGGCC: 0.277
UAGAAGGUAUGUUGACAAAUAAGCCUCUUAGGUUACAAAGGAGUUUGGGGGGAAAAAAAUAUCCAUUGUGAAAAUGAAAGUACAGCCUAGCUCACCUGGGGCCUCCCUGC: 0.498
CCAGGUGGGAGGGCUCUGGGAGUGAUGGGGUGACAGGGUGGACUGAUGGCUGGGGUCCCCCAUCUGCUAUGCGUACUUCACUGACCUAUAAACACUAAGAUGGGGUGCAA: 2.28

Set 3 — method: RNA Bind-n-Seq; molecule type: RNA; matrix: in vitro; concentration: 200 nM; setting: whole 134-nt RNA, ends assumed; together with: 150 mM KCl; relative to: input library; reading: higher = stronger binding; quantity: log2 enrichment
Target: Fragile X messenger ribonucleoprotein 1, C-terminal low-complexity region (Fmr1, Mus musculus, UniProt P35922)
Shared flanks, not repeated: GGGAGUUCUACAGUCCGACGAUC … UGGAAUUCUCGGGUGUCAAGG
UAACUUUAGAGGAGGAUCUGAUGGAUAUGGCAGUUGACGUGGAUUUGGGGAUGGCUAUAAUGGGUAUGGAGGAGGACCUGGAGGUGGCAA: 0.137
CUGUGCUACACAUCGUAUGUACCGAAUCGGGAAAAAAAGGAAAAAAAGGGGAAAAAAAGGGGAAAGUAUUAUGUUACGCCGUUCGGAUCU: -0.194
CCUGUGCUACACAUCGUAUGUACCGAAUCGGGGUUUUUUUGGGGAGGGGUUUUUUUGGGGAAAGUAUUAUGUUACGCCGUUCGGAUCUGC: 0.404
CUGUGCUACACAUCGUAUGUACCGAAUCGGGGCCCCCCCGGGGCCCCCCCGGGCCCCCCCGGAAAGUAUUAUGUUACGCCGUUCGGAUCU: -1.14
ACCAUGCAGGUGGGCAUCUUUGGGAAGUGGGGCAAGGGGGGGAUAGGGAGGGGGGUAACACUUUGGGAACAGGUGGUGCCAGGUCGUUUC: 0.713
UAACUUUAGAGGAGGAUCUGAUGGAUAUGGCAGUGGACGUGGAUUUGGGGAUGGCUAUAAUGGGUAUGGAGGAGGACCUGGAGGUGGCAA: 0.164
CAAGUCCUGUGCUACACAUCGUAUGUACCGAAUCGGGAAAGGGAAAGGGAAAGGGGAAAGUAUUAUGUUACGCCGUUCGGAUCUGCACUU: 0.51
CAAGUCCUGUGCUACACAUCGUAUGUACCGAAUCGGGAGGGUGGGAAAAAAAGGGAAAGUAUUAUGUUACGCCGUUCGGAUCUGCACUUC: 0.719
CUGUGCUACACAUCGUAUGUACCGAAUCGGAAAAAAAGGGGAAAAAAAGGGAAAAAAAGGGAAAGUAUUAUGUUACGCCGUUCGGAUCUG: -1.04
CACAGACAACACGCACCCACGCAGACACAGAGGGAAGGGGUUGGGAUGGGGACAGGGUGCACAGCAGGGCGGGGUAGGACCCCAGCCCCU: 1.32
UCCUGUGCUACACAUCGUAUGUACCGAAUCGGGGAAAAAGGGGUUUUUUUGGGGUGGGGAAAGUAUUAUGUUACGCCGUUCGGAUCUGCA: 0.871
UCAAGUCCUGUGCUACACAUCGUAUGUACCGAAUCGGAAAGGUUUUUUUGGAGGAAAGUAUUAUGUUACGCCGUUCGGAUCUGCACUUCC: -0.835
GGUGGAAUCCAUAGAGCUCCCCAUGGACAACAAGACCAAUAAGAGGCGUGGGUUCUGCUUUAUUACCUUUAAGGAAGAAGAACCAGUGAA: -0.123
CAAGUCCUGUGCUACACAUCGUAUGUACCGAAUCGGGAAAAAGGGAAAGGGUGGGAAAGUAUUAUGUUACGCCGUUCGGAUCUGCACUUC: 0.8

Set 4 — target: JDP2, bZIP domain (human); method: DHFR protein complementation; matrix: yeast; relative to: wild-type JUN-FOS pair; reading: higher = stronger binding; quantity: binding fitness
Setting: single substitutions, most at no-binding floor
Parent: JUN, bZIP domain (human); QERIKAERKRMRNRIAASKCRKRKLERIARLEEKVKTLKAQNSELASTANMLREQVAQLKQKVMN; partner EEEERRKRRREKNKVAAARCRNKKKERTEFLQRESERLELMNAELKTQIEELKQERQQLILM
L31V: 0.167 natural log
E33M: 0.239 natural log
T48R: 0.28 natural log
M51C: 0.233 natural log
R53K: 0.276 natural log
A40F: 0.301 natural log
L45N: -0.0886 natural log
L31Q: 0.143 natural log
E32K: 0.201 natural log
V35T: 0.179 natural log
Q41D: 0.226 natural log
E32T: 0.202 natural log
I28P: 0.291 natural log
M51L: 0.301 natural log
K34R: 0.36 natural log
A29P: 0.22 natural log
R30L: 0.297 natural log
T37I: 0.314 natural log
K34A: 0.298 natural log
R53V: 0.258 natural log
L45K: -0.26 natural log
L31K: 0.107 natural log
L45Y: 0.216 natural log
T37S: 0.272 natural log
A49F: 0.139 natural log

Set 5 — target: CCNB1, cyclin fold, Cln2 fusion (human); method: yeast growth competition, sequencing; matrix: yeast; setting: strong parent motif; relative to: not given; reading: higher = stronger binding; quantity: normalised enrichment score
Parent: E2F1 docking peptide (human); PPVKRRLDLETDH; partner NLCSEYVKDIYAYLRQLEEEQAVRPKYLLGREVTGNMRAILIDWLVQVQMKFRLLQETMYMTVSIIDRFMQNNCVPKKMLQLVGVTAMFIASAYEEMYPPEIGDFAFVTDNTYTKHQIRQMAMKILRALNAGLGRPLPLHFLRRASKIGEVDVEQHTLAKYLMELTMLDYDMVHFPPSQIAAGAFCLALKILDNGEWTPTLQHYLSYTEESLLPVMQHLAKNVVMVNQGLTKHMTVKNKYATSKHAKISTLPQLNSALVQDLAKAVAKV
R5A L7A: -0.253
E10S: 0.462
R5S: 0.0837
D8N: 1.96
P1C: 0.64
T11R: 0.784
P1V: 1.12
P1E: 0.704
E10N: 1.31
R5Y: 0.264
P2C: 1.48
E10Q: 1.04
E10W: 0.626
L7A: 0.466
K4Y: -0.199
R5I: 0.471
H13Y: 1.33
T11I: 1.44
L7R: 0.853
L7Y: 0.514
K4P: 0.554
E10R: 0.571
P2G: 0.833
K4V: 3.41
H13T: 1.61

A few entries again (set 5):
P1E: 0.704
E10N: 1.31
R5Y: 0.264
P2C: 1.48
E10Q: 1.04
E10W: 0.626
L7A: 0.466
K4Y: -0.199
R5I: 0.471
H13Y: 1.33
T11I: 1.44
L7R: 0.853
L7Y: 0.514
K4P: 0.554
E10R: 0.571
